Results gathered from unrelated publications.
Each numbered part is a random draw from the data of one study; scales do not carry over between parts.

Block 1
Target: PABPC1L2, full length, GST fusion (mouse, UniProt A0ABA7IW68)
Method: RNAcompete
Form: RNA
Sample: in vitro
Concentration: 20 nM
Notes: 7-mer, probes averaged, single round
Baseline: mean of 7-mers
Reading: higher = stronger binding
Measurement: 7-mer Z-score
Construct (chain): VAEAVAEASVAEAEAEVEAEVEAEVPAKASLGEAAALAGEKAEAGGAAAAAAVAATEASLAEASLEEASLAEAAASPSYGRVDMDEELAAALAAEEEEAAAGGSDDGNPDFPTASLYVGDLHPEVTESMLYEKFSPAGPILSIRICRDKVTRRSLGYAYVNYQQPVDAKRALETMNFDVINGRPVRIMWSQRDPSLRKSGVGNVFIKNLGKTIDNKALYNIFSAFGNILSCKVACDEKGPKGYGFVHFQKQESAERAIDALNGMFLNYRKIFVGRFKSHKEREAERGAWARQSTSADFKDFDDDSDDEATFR
AAAGCCG: 0.657
CAGCAUU: -0.209
UCGCGUG: -0.238
CCAGUAC: -0.209

Block 2
Target: Histone acetyltransferase KAT6A, both winged helices, GST fusion (KAT6A, Homo sapiens, UniProt Q92794, residues 1-181)
Method: protein binding microarray
Form: double-stranded DNA, one strand shown
Sample: in vitro
Concentration: not given
Notes: 8-mer, flanks averaged, mean of 2 arrays, mostly near background
Baseline: not given
Reading: higher = stronger binding
Measurement: E-score
Target sequence (chain): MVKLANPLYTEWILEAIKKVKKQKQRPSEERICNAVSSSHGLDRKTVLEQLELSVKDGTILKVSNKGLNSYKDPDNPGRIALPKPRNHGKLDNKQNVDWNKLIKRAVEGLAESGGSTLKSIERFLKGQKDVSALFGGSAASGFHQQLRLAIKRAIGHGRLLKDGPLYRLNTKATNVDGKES
GACCCCCA: -0.246
GAAGGGAA: -0.011
CCACTTGC: -0.23
AAAATGCT: -0.144
CGATGCCC: -0.0208
AGCTTCCT: 0.0108

Block 3
Target: Ras GTPase-activating protein-binding protein 1, C-terminal RGG region (G3BP1, Homo sapiens, UniProt Q13283)
Chain of UniProt Q13283 (whole entry, looked up): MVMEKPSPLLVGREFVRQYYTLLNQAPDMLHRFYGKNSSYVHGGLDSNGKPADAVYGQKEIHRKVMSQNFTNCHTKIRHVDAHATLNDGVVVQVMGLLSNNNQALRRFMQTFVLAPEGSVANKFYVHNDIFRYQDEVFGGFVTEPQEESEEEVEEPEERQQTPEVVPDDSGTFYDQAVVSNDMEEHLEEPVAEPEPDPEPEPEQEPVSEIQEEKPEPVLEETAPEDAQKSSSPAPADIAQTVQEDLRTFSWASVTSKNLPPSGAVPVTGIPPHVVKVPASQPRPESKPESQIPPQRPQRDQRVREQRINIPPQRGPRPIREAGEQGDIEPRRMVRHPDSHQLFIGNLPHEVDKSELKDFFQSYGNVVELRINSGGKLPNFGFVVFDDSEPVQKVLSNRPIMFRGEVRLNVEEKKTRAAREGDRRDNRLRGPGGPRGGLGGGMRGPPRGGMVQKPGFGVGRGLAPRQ
Method: RNA Bind-n-Seq
Form: RNA
Sample: in vitro
Concentration: 1 µM
Notes: whole 134-nt RNA, ends assumed
Together with: 150 mM KCl
Baseline: input library
Reading: higher = stronger binding
Measurement: log2 enrichment
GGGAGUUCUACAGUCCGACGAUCUCCUGUGCUACACAUCGUAUGUACCGAAUCGGGGUUUUUGGGUUUUUGGGGUUUUUGGGGAAAGUAUUAUGUUACGCCGUUCGGAUCUGCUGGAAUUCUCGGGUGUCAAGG: 0.292
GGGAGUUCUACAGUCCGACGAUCAUUAUAGACUUGAUCAAAACACAGGAAAAGGCAACUCCCAGGAACUUUCCGCCACGAUUCCAGGAUGGAUAUUACAGCUGACAGCUUUUCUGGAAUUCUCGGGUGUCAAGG: -1.7
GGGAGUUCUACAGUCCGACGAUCCCUCAAGUCCUGUGCUACACAUCGUAUGUACCGAAUCGGUGGGGUGGGUGGGAAAGUAUUAUGUUACGCCGUUCGGAUCUGCACUUCCAGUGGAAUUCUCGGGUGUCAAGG: 0.99
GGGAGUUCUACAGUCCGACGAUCUCCUCAAGUCCUGUGCUACACAUCGUAUGUACCGAAUCGGGGUGGUGGUGGAAAGUAUUAUGUUACGCCGUUCGGAUCUGCACUUCCAGCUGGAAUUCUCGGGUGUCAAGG: -0.621
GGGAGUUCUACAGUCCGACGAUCACCAUGCAAGUGGGCAUCUUUGGGAAGUGGGGCAAGGGGGGGAUAGGGAGGGGGGUAACACUUUGGGAACAGGUGGUCCCAGGUCGUUUCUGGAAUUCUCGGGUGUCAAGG: -0.904
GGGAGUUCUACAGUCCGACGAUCCUCAAGUCCUGUGCUACACAUCGUAUGUACCGAAUCGGAAGGAAGGGGAAGGGGAAAGUAUUAUGUUACGCCGUUCGGAUCUGCACUUCCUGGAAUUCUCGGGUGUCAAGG: -0.947

Further values, each from its own experiment
PhoQ, residues 284 288 289 292 302 303 SSYNSA
fold induction (PhoP, residues 12 14 15 18 19 NYFRM (Escherichia coli, UniProt P23836); Sort-seq, measured: YFP reporter; E. coli; PhoQ-PhoP variant library, together with: 10 µM Mg2+; baseline: high Mg2+ state, higher = stronger signaling): 5.67
